Published values of several laboratories.
Parts stem from different laboratories: compare values within a part only. Positions count from the first letter of the parent shown.

Series 1
Target: ABI1, truncated, D143A, DHFR fusion (Arabidopsis thaliana)
Technique: DHFR PCA, deep sequencing
Matrix: yeast
Setting: methotrexate growth selection, single substitutions
With: (+)-ABA 0.39 µM
Reference: wild-type fitted maximum
Direction: higher = stronger binding
Parent: PYL1, truncated, DHFR fusion (Arabidopsis thaliana); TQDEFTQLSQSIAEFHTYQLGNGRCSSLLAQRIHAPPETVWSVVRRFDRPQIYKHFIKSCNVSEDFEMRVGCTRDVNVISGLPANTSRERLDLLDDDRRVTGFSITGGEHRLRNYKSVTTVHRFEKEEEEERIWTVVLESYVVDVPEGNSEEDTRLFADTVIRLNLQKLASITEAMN
`K116R` — result for “relative binding score”: 51.2%.
`V43Y`: “relative binding score” 5.42%.
`G108I`: “relative binding score” -7.82%.
For `G107N`, “relative binding score” read 7.75%.
`P50H` — result for “relative binding score”: -15.3%.
`D75K` — result for “relative binding score”: 30.9%.
`E4V`: “relative binding score” 51.2%.
`V137D` — result for “relative binding score”: 2.96%.
Under “relative binding score”, `P37W` is recorded as -11.3%.
`N165Q` — result for “relative binding score”: 3.21%.
For `G21C`, “relative binding score” read 31.1%.
`T154M`: “relative binding score” 4.21%.
`V100T` — result for “relative binding score”: -7.14%.
`K168R`: “relative binding score” 38.1%.
For `K54E`, “relative binding score” read -1.72%.
For `G23V`, “relative binding score” read 0.371%.
For `T86S`, “relative binding score” read 52.7%.
`H110Q` — result for “relative binding score”: 29.9%.
`A175P` — result for “relative binding score”: 1.34%.
For `G148E`, “relative binding score” read -13.2%.
Under “relative binding score”, `W134R` is recorded as 3.91%.
`P37E`: “relative binding score” -6.06%.
For `F157C`, “relative binding score” read 10.9%.
`T39C` — result for “relative binding score”: 28.3%.
`E130C`: “relative binding score” 47.2%.

Series 2
Target: UBE2D1 UBC core domain (UniProt P51668)
Technique: yeast two-hybrid
Matrix: yeast
Setting: mostly zero background
Reference: not given
Direction: higher = stronger interaction
B1: RNF135 RING domain (UniProt Q8IUD6); chain PVWLAEDDLGCIICQGLLDWPATLPCGHSFCRHCLEALWGARDARRWACPTCRQGAAQQPHLR
B2: TRIM22 RING domain (UniProt Q8IYM9); chain KEVKMSPQEGQKRDVCEHHGKKLQIFCKEDGKVICWVCELSQEHQGHQTFRINEVVKECQEK
B3: ZNRF3 RING domain (UniProt Q9ULT6); chain DTLSSSSTSDCAICLEKYIDGEELRVIPCTHRFHRKCVDPWLLQHHTCPHCRHNIIEQKGNP
B4: RNF181 RING domain (UniProt Q9P0P0); chain VIRGSQAELKCPVCLLEFEEEETAIEMPCHHLFHSSCILPWLSKTNSCPLCRYELPTDDDTY
B5: DTX1 RING domain (UniProt Q86Y01); chain QKVKNPPDEDCTICMERLVTASGYEGVLRHKGVRPELVGRLGRCGHMYHLLCLVAMYSNGNKDGSLQCPTCKAIYGEKTGTQ
B6: TRIM48 RING domain (UniProt Q8IWZ4); chain ISQVFQRELTCPICMNYFIDPVTIDCGHSFCRPCFYLNWQDIPILTQCFECIKTIQQRNLKT
B7: PRKN RING domain (UniProt O60260); chain LIATNSRNITCITCTDVRSPVLVFQCNSRHVICLDCFHLYCVTRLNDRQFVHDPQLGYSLPCVAGCPNSLIKELHH
B8: Ltn1 RING domain (UniProt Q6A009); chain VDKRFEGVEDCMICFSVIHGFNYSLPKKACRTCKKKFHSACLYKWFTSSNKSTCPLCRETFF
Residues (chain): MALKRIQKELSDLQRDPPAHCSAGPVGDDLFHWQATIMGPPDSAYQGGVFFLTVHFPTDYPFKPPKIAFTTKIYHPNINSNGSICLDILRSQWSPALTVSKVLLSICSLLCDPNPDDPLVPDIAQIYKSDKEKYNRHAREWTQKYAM
`B1 (RNF135 RING domain)` — result for “lacZ reporter activity”: 0.
For `KLWDINAHITCRLCSGYLIDATTVTECLHTFCRSCLVKYLEENNTCPTCRIVIHQSHPLQ (PCGF3 RING domain (UniProt Q3KNV8))`, “lacZ reporter activity” read 0.
For `KEQLEKHNDICAICYQDMKSAVITPCSHFFHAGCLKKWLYVQETCPLCHCHLKNSSQLP (RNF145 RING domain (UniProt Q96MT1))`, “lacZ reporter activity” read 0.
`B2 (TRIM22 RING domain)`: “lacZ reporter activity” 0.
Under “lacZ reporter activity”, `KITELNPHLMCVLCGGYFIDATTIIECLHSFCKTCIVRYLETSKYCPICDVQVHKTRPLL (BMI1 RING domain (UniProt P35226))` is recorded as 0.
`ALDRLEKLLRCSRCTNILREPVCLGGCEHIFCSNCVSDCIGTGCPVCYTPAWIQDLKI (BARD1 RING domain (UniProt Q99728))`: “lacZ reporter activity” 0.
For `MDDQGCPRCKTTKYRNPSLKLMVNVCGHTLCESCVDLLFVRGAGNCPECGTPLRKSNFRV (MNAT1 RING domain (UniProt P51948))`, “lacZ reporter activity” read 0.
`B3 (ZNRF3 RING domain)` — result for “lacZ reporter activity”: 2300.
`B4 (RNF181 RING domain)`: “lacZ reporter activity” 12300.
Under “lacZ reporter activity”, `NTAPSLTVPECAICLQTCVHPVSLPCKHVFCYLCVKGASWLGKRCALCRQEIPEDFLDK (RNF146 RING domain (UniProt Q9NTX7))` is recorded as 0.
For `B5 (DTX1 RING domain)`, “lacZ reporter activity” read 2480.
`B6 (TRIM48 RING domain)` — result for “lacZ reporter activity”: 0.
Under “lacZ reporter activity”, `QLRRLQEERTCKVCLDRAVSIVFVPCGHLVCAECAPGLQLCPICRAPVRSRVRTF (BIRC7 RING domain (UniProt Q96CA5))` is recorded as 0.
`B7 (PRKN RING domain)`: “lacZ reporter activity” 0.
`B8 (Ltn1 RING domain)` — result for “lacZ reporter activity”: 0.

Series 3
Target: Sal-like protein 4, full length isoform B (SALL4, Homo sapiens, UniProt Q9UJQ4-2, residues 1-616)
Technique: universal PBM
Molecule type: double-stranded DNA, one strand shown
Matrix: in vitro
Concentration: not given
Setting: 8-mer, flanks averaged, mean of replicates
Direction: higher = stronger binding
Target sequence (chain): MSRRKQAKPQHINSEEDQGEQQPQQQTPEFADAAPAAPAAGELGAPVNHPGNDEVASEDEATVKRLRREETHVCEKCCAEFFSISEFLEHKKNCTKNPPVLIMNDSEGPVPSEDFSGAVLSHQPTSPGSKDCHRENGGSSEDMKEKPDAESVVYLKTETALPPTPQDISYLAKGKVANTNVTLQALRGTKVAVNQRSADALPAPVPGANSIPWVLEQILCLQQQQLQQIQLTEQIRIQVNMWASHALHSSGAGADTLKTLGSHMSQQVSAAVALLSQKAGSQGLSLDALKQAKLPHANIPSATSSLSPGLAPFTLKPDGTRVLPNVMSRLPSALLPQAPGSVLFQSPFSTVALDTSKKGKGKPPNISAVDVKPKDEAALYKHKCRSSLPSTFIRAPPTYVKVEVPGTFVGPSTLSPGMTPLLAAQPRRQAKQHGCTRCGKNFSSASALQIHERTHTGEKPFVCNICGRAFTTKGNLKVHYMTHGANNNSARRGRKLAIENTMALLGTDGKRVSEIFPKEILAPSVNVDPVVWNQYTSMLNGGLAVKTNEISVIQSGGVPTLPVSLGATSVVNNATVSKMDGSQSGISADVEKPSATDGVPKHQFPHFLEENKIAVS
The E-score of `ACGCTGTA` is reported as -0.00645.
`AACGTTAT` has an E-score of 0.273.
With `GGGCTTAC` the E-score was -0.186.
For `GGAGTACC`, the E-score was -0.218.
`CGCTGGAC` has an E-score of -0.3.
The E-score of `CCCACCCA` is reported as -0.114.
`CACTGTAC` has an E-score of -0.125.
With `TGCAGGAA` the E-score was -0.0418.
The E-score of `GCCCTCGC` is reported as -0.307.
The E-score of `CCGGAAGC` is reported as -0.358.
The E-score of `GCCGAGCA` is reported as -0.336.
With `CCGAAGGC` the E-score was -0.183.
With `GCGTCAAA` the E-score was -0.0319.
`AACAGTAG` gave an E-score of 0.0318.
For `CACGCAGC`, the E-score was -0.327.
For `CATGTAGA`, the E-score was 0.191.

Series 4
Target: JUNB, bZIP domain (human)
Technique: DHFR protein complementation
Matrix: yeast
Setting: single substitutions, most at no-binding floor
Reference: wild-type JUN-FOS pair
Direction: higher = stronger binding
Parent: JUN, bZIP domain (human); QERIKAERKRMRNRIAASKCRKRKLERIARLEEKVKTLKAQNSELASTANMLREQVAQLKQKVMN; partner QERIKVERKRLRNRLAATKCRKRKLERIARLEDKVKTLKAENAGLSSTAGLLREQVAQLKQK
For `A29D`, the binding fitness was -1.37 natural log.
The binding fitness of `E32V` is reported as -1.28 natural log.
With `R30T` the binding fitness was -0.9 natural log.
With `S43P` the binding fitness was -1.52 natural log.
`L31V` gave a binding fitness of -1.34 natural log.
`A40V` gave a binding fitness of -1.22 natural log.
The binding fitness of `A29V` is reported as -1.36 natural log.
The binding fitness of `S43C` is reported as -1.19 natural log.
`E32R` has a binding fitness of -1.22 natural log.
For `S47R`, the binding fitness was -0.839 natural log.
`T48L` has a binding fitness of -1.05 natural log.
With `L31H` the binding fitness was -1.54 natural log.
With `L38Y` the binding fitness was -1.55 natural log.
`R53W` has a binding fitness of -1.46 natural log.
`T37R` has a binding fitness of -1.07 natural log.
The binding fitness of `K34W` is reported as -1.27 natural log.
`A49S` gave a binding fitness of -1.42 natural log.
The binding fitness of `A46H` is reported as -1.13 natural log.

Repeated from above (series 2):
For `MDDQGCPRCKTTKYRNPSLKLMVNVCGHTLCESCVDLLFVRGAGNCPECGTPLRKSNFRV (MNAT1 RING domain (UniProt P51948))`, “lacZ reporter activity” read 0.
`B3 (ZNRF3 RING domain)` — result for “lacZ reporter activity”: 2300.
`B4 (RNF181 RING domain)`: “lacZ reporter activity” 12300.
Under “lacZ reporter activity”, `NTAPSLTVPECAICLQTCVHPVSLPCKHVFCYLCVKGASWLGKRCALCRQEIPEDFLDK (RNF146 RING domain (UniProt Q9NTX7))` is recorded as 0.
For `B5 (DTX1 RING domain)`, “lacZ reporter activity” read 2480.
`B6 (TRIM48 RING domain)` — result for “lacZ reporter activity”: 0.
